{"data": "Assay results of several laboratories", "note": "Each line is one published result; not all experiments were run side by side. ± marks the error that the study gave."}
{"SMILES": "CN[C@](C)(C[18F])C(=O)O", "target or system": "DU-145 tumour model", "test system": "host not given, tumour", "conditions": "1 h, tumour-bearing", "quantity": "tracer uptake", "result": "4.1 %ID/g"}
{"SMILES": "COc1cc(C(=O)NCCOCCOCCOCCNC(=O)c2ccc([18F])nc2)ccc1NC(=O)C1NC(CC(C)(C)C)C(C#N)(c2ccc(Cl)cc2F)C1c1cccc(Cl)c1F (stereo not drawn)", "target or system": "SJSA-1 tumour model", "test system": "host not given, lung", "conditions": "2 h, tumour-bearing", "quantity": "tracer uptake", "result": "0.49 %ID/g"}
{"SMILES": "CSCC[C@@H]1NC(=O)[C@@H]2CSSC[C@H](NC(=O)[C@H](CO)NC(=O)[C@H](C)N)C(=O)N[C@@H](CCCNC(=N)N)C(=O)N[C@@H]([C@@H](C)O)C(=O)N3CCC[C@H]3C(=O)N[C@@H](CCCCN)C(=O)N[C@@H](CC(=O)O)C(=O)N[C@H]3CSSC[C@H](NC(=O)[C@H](CCCCN)NC(=O)[C@H](CCCNC(=N)N)NC(=O)[C@H](CC(N)=O)NC1=O)C(=O)N[C@@H](CCCCN)C(=O)N[C@H]1CSSC[C@H](NC(=O)[C@@H]4CCCN4C(=O)[C@H](CC(=O)O)NC(=O)[C@H](C)NC3=O)C(=O)N[C@@H](C)C(=O)N[C@@H](CCCCN)C(=O)N[C@@H](CCC(=O)O)C(=O)N[C@@H]([C@@H](C)O)C(=O)NCC(=O)N[C@@H](CSSC[C@@H](C(N)=O)NC(=O)[C@H](CCCNC(=N)N)NC(=O)[C@H](CC(N)=O)NC1=O)C(=O)N1CCC[C@H]1C(=O)N[C@@H](Cc1ccc(O)cc1)C(=O)NCC(=O)N[C@@H](CCCCN)C(=O)N2", "test system": "DA rat pristane-induced arthritis, serum", "conditions": "subcutaneous, 0.1 mg/kg once weekly, 21 days", "quantity": "Magnesium", "result": "2.06 mg/dL"}
{"SMILES": "CN(C)CC1CCCCC1(O)c1cccc(O)c1 (stereo not drawn)", "target or system": "Caco-2 TC7", "conditions": "100 µM, 3 h, pH 6.8 apical, 7.4 basolateral", "quantity": "efflux ratio", "result": 2.2}
{"SMILES": "CC[C@H](C)C(=O)N1CCC(NC(=O)Nc2ccc(OC(F)(F)F)c(F)c2)CC1", "test system": "healthy volunteers", "conditions": "oral, 16 mg single dose, 14 (unit not given)", "quantity": "subjects with dyspnoea TEAE", "result": "0%"}
{"SMILES": "COc1ccc(CNc2nc(N3CCC[C@H]3CO)ncc2C(=O)NN)cc1Cl", "target or system": "Salmonella typhimurium", "test system": "TA97a", "conditions": "62.5 µg/plate, 48 h", "quantity": "revertant count", "result": "153 ± 19"}
{"SMILES": "CCC(=O)N(C)c1ccc(Cl)c(Cl)c1", "target or system": "Salmonella typhimurium", "assay": "Ames test", "test system": "TA98", "conditions": "5.00 mg/plate, without S9 activation", "quantity": "revertants", "result": "0 ± 0.6 revertants/plate"}
{"SMILES": "COc1ccc(CNc2nc(N3CCC[C@H]3CO)ncc2C(=O)NNC(=O)c2cnc(N3CCC[C@H]3CO)nc2NCc2ccc(OC)c(Cl)c2)cc1Cl", "target or system": "Salmonella typhimurium", "test system": "TA98", "conditions": "1000 µg/plate, 48 h", "quantity": "revertant count", "result": "16 ± 3"}
{"SMILES": "C[C@@](O)(C(F)F)[C@H](NC(=O)c1ccc(C#CC#CC2CC2)cc1)C(=O)NO", "test system": "dog, plasma", "conditions": "intravenous, 30 mg/kg", "quantity": "Cmax", "result": "15100 ng/mL"}
{"note": "For quick reference, copied from above:"}
{"SMILES": "CN[C@](C)(C[18F])C(=O)O", "target or system": "DU-145 tumour model", "test system": "host not given, tumour", "conditions": "1 h, tumour-bearing", "quantity": "tracer uptake", "result": "4.1 %ID/g"}
